# Assay results collected from several papers.
# A part holds a random share of what one study measured. Changes are numbered by the printed parent chain.

# Set 1 — technique: protein binding microarray; molecule type: double-stranded DNA, one strand shown; matrix: in vitro; concentration: not given; relative to: not given; direction: higher = stronger binding
# Target: Histone acetyltransferase KAT6A, winged helix 1, GST fusion (KAT6A, Homo sapiens, UniProt Q92794, residues 1-85)
# Setting: 8-mer, flanks averaged, mean of 2 arrays, mostly near background
# Target sequence (chain): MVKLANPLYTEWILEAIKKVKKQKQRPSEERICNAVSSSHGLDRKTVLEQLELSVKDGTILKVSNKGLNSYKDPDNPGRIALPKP
Strand,E-score
CACGACCC,-0.115
CATTTGAC,-0.0232
AGCATTCA,-0.254
GTCCGAGA,0.0979
CTAAGAAG,-0.177
TAAGCGGA,0.00717

# Set 2 — target: CCNB2, cyclin fold, Cln2 fusion (human); technique: yeast growth competition, sequencing; matrix: yeast; setting: weak parent motif; relative to: not given; direction: higher = stronger binding
# Starting sequence: CDC25A docking peptide (human); PPHRRRLLFACSP; partner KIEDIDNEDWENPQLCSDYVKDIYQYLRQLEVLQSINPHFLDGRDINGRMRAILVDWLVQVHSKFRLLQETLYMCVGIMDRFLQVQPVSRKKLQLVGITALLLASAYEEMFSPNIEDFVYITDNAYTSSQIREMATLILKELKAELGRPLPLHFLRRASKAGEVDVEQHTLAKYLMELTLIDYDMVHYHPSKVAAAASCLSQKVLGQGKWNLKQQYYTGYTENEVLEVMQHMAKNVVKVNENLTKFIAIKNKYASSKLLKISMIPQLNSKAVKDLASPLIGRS
Substitution,normalised enrichment score
A10D,0.318
H3E,-0.175
F9N,0.413
C11W,-0.249
A10F,-0.102
P13R,0.35
L8Y,0.625
P13W,-0.0782

# Set 3 — technique: DHFR PCA, deep sequencing; matrix: yeast; together with: (+)-ABA 4.8 µM; relative to: wild-type fitted maximum; direction: higher = stronger binding
# Target: ABI1, truncated, D143A, DHFR fusion (Arabidopsis thaliana)
# Setting: methotrexate growth selection, single substitutions
# Starting sequence: PYL1, truncated, DHFR fusion (Arabidopsis thaliana); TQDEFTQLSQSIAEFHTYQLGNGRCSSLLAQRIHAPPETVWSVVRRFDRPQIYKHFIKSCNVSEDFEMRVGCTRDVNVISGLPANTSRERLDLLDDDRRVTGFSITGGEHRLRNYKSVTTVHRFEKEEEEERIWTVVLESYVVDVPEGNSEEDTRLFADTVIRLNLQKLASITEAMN; partner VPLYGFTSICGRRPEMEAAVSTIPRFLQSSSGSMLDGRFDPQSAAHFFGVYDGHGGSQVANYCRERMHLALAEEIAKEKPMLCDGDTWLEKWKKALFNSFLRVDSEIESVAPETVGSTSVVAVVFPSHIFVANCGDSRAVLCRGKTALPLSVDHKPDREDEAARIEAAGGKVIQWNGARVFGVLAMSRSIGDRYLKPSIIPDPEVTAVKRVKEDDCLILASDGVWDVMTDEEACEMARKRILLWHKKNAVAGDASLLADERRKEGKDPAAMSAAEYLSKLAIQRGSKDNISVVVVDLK
Substitution,relative binding score
F124L,85.5%
V143A,6.53%
T154E,-11.9%
T73S,55.7%

# Single results of other studies
Substance,target,assay,system,setting,how to read,measurement,result
"PhoQ, residues 284 288 289 292 302 303 SCKMEA","PhoP, residues 12 14 15 18 19 HLGGL (Escherichia coli, UniProt P23836)","Sort-seq, measured: YFP reporter",E. coli,"PhoQ-PhoP variant library, together with: 10 µM Mg2+","relative to: high Mg2+ state, higher = stronger signaling",fold induction,11.5

# For quick reference, copied from above (set 2):
Substitution,normalised enrichment score
A10F,-0.102
